Experimental data from different studies.
Numbered parts are unrelated; each lists some results of a single study. Changes are numbered by the printed parent chain.

Sample 1
Target: CCNA2, cyclin fold, Cln2 fusion (human)
Method: yeast growth competition, sequencing
Medium: yeast
Setting: strong parent motif
Reference: not given
Direction: higher = stronger binding
Starting sequence: SAMHD1 docking peptide (human); ASKSRVQLFKDDP
Variant | normalised enrichment score
L8I | -0.0363
F9E | -0.554
Q7M | 0.703
K3T | 1.63
K10S | 1.8
S4K | 0.536
D11F | 1.51
S2H | 3.39
F9R | -0.077
S2K | 3.1
R5D | -0.451
L8Q | -0.195
K3L | 1.28
K3V | 1.12
K10F | 2.65
R5G | 0.0635
S2T | 3.42
K3W | 0.722
K3E | 0.0563
V6I | 2.85
F9G | -0.371
Q7N | 0.98
F9P | 0.256
S2Q | 2.57
F9T | -0.231

Sample 2
Target: UBE2Q2 UBC core domain (UniProt Q8WVN8)
Chain of UniProt Q8WVN8 (whole entry, looked up): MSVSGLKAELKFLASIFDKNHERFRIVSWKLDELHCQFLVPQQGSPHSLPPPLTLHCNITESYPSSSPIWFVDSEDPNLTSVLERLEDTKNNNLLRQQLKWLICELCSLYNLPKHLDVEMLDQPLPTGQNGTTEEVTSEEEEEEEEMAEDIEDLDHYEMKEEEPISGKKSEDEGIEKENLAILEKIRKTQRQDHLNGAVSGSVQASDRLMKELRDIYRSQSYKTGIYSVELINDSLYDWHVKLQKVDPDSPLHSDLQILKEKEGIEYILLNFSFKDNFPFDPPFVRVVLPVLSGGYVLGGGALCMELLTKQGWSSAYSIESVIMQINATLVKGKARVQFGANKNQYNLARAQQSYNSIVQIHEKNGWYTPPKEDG
Method: yeast two-hybrid
Medium: yeast
Setting: mostly zero background
Reference: not given
Direction: higher = stronger interaction
B1: RFPL3 RING domain (UniProt O75679); chain MAALFQEASSCPVCSDYLEKPMSLECGCTVCLKCINSLQKEPHGEDLLCCCCSMVSQRNKIRP
B2: ARIH1 RING domain (UniProt Q9Y4X5); chain NTRSSAQDMPCQICYLNYPNSYFTGLECGHKFCMQCWSEYLTTKIMEEGMGQTISCPAHGCDILVDDNTVM
B3: MDM2 RING domain (UniProt Q00987); chain TQDKEESVESSLPLNAIEPCVICQGRPKNGCIVHGKTGHLMACFTCAKKLKKRNKPCPVCRQPIQMIVLTYFP
B4: RNF7 RING domain (UniProt Q9UBF6); chain AICRVQVMDACLRCQAENKQEDCVVVWGECNHSFHNCCMSLWVKQNNRCPLCQQDWVVQRIGK
B5: CBLL1 RING domain (UniProt Q75N03); chain GEKDDTPVHFCDKCGLPIKIYGRMIPCKHVFCYDCAILHEKKGDKMCPGCSDPVQRIEQCT
Sequence | lacZ reporter activity
VPADASPDSKCPICLDRFDNVSYLDRCLHKFCFRCVQEWSKNKAECPLCKQPFDSIFHSV (TOPORS RING domain (UniProt Q9NS56)) | 0
KITELNPHLMCALCGGYFIDATTIVECLHSFCKTCIVRYLETNKYCPMCDVQVHKTRPLL (PCGF2 RING domain (UniProt P35227)) | 2490
B1 (RFPL3 RING domain) | 0
B2 (ARIH1 RING domain) | 0
B3 (MDM2 RING domain) | 0
B4 (RNF7 RING domain) | 0
SNNDLASLFECPVCFDYVLPPILQCQSGHLVCSNCRPKLTCCPTCRGPLGSIRNLA (SIAH1 RING domain (UniProt Q8IUQ4)) | 0
MEEMEEELKCPVCGSFYREPIILPCSHNLCQACARNILVQTPESESPQSHRAAGSGVSDY (TRIM9 RING domain (UniProt Q9C026)) | 0
B5 (CBLL1 RING domain) | 0
FLSKVEETFQCICCQELVFRPITTVCQHNVCKDCLDRSFRAQVFSCPACRYDLGRSYAMQ (UHRF1 RING domain (UniProt Q96T88)) | 0
EIKDYKARLTCPCCNMRKKDAVLTKCFHVFCFECVKTRYDTRQRKCPKCNAAFGANDFHR (RNF20 RING domain (UniProt Q5VTR2)) | 0

Sample 3
Target: RING finger protein unkempt homolog, zinc fingers 1-6, GST-SBP tag (UNK, Homo sapiens, UniProt Q9C0B0, residues 30-357)
Method: RNA Bind-n-Seq
Molecule type: RNA
Medium: in vitro
Concentration: not given
Setting: RNA with constant flanks, human and mouse sites, ends assumed
Reference: input RNA pool
Direction: higher = stronger binding
Residues (chain): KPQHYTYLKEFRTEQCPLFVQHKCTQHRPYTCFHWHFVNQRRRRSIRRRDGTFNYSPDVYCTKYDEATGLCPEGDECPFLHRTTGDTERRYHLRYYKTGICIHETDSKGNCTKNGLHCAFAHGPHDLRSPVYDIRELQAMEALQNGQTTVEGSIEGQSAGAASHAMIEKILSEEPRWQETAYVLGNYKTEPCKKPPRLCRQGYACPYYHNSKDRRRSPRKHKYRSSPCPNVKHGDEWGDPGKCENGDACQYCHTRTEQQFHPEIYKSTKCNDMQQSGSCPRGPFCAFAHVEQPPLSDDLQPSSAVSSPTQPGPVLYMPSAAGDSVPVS
Strand | bound/input enrichment [ratio]
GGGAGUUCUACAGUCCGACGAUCUUAUAGGAUUCCAAACCCAUGAGACAUGUUUUACAGGAAAUGAAAGCAUGAAUACUCAGGUAGCUGGAAGUGAGUUAAACAUGACAGGGACAGGUGGCAUUAAAACUGAGUCUAAAAGCUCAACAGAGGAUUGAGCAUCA | 0.353
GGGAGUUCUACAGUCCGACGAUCUAUGCAGGUGCGUUGAGAGCUUCAGGAGAAAUGGCUUCAGCACAGUAUAUUACUGCAGCUCUUAGAGAUUUGUUUGAUUCCAUGGAUAAAACUUCUUCUAGUAUCCCACCUAUUAUUCUGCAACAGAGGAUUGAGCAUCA | 1.31
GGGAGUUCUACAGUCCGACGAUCAGCACCAGCGCUGCCACUUGUACCCGCAGACAUUAUGAAAGAUUAAUCCUACCAUAUGAAAGAUUUAUUAAAGGAGAAGAAGAUAAGCCCCUGCCUCCAAUCAAACCUCGGAAACAGGAGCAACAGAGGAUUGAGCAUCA | 0.416
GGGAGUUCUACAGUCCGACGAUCAGGUAGUCUUUGACACUCUCUGUGGUAGCUCUCAAGGCCCACGGUUGUUCAGUCCCAUCCUUCAGGGGUGCUUGGGCGGGUUCUGCCCUUGCAGCCUUCGCACUAAUACCAAGGUAGCUCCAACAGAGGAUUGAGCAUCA | 0.0824
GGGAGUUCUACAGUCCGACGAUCUCAUCUACGUUUGCAAUUCCCCAGGAAUUAGAAAAAAGUGUACAGAUGUUUGAAUUAUUUUAUAGCCAACAUUUCAGUGGAAGGAAACUUACAUGGUUACAUUAUCUGUGUACAGGUGAACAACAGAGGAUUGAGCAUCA | 1.3
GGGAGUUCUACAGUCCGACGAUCGUAGAUAAGGUCAUGGAUCAGAAAGAACAUAAAUUGAAUGGGAAAGUCAUUGAUCCUAAAAGGGCCAAAGCCAUGAAAACAAAAGAGCCUGUCAAAAAAAUUUUUGUUGGUGGCCUUUCUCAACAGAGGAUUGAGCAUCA | 0.352
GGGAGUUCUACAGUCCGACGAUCAACCACCUCAUCCAAAAUAUCCCGGGCUUCUGGGGGCAAGCAUUUCAGAACCAUCCCCAGCUAGCAUCCUUUCUGAAUAGCCAAGAGAAAGAGGUACUGAGCUACUUAAACAGCUUGGAACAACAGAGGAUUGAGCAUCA | 0.458
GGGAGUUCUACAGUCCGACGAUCGAGUCAGCAUAUUUGAGAGGGCAGCGUUUUGCCAGUACCUAUCUUCUUUCUACAGAAGAUAGCUUUUUAAGAAAUAAGAGUUCCACAUUGAGUGGCUGUCAGACACAGAUUUCACUGUGACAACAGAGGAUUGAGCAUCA | 0.277

Sample 4
Target: Sal-like protein 4, full length isoform A (SALL4, Homo sapiens, UniProt Q9UJQ4, residues 1-1053)
Chain of UniProt Q9UJQ4 (whole entry, looked up): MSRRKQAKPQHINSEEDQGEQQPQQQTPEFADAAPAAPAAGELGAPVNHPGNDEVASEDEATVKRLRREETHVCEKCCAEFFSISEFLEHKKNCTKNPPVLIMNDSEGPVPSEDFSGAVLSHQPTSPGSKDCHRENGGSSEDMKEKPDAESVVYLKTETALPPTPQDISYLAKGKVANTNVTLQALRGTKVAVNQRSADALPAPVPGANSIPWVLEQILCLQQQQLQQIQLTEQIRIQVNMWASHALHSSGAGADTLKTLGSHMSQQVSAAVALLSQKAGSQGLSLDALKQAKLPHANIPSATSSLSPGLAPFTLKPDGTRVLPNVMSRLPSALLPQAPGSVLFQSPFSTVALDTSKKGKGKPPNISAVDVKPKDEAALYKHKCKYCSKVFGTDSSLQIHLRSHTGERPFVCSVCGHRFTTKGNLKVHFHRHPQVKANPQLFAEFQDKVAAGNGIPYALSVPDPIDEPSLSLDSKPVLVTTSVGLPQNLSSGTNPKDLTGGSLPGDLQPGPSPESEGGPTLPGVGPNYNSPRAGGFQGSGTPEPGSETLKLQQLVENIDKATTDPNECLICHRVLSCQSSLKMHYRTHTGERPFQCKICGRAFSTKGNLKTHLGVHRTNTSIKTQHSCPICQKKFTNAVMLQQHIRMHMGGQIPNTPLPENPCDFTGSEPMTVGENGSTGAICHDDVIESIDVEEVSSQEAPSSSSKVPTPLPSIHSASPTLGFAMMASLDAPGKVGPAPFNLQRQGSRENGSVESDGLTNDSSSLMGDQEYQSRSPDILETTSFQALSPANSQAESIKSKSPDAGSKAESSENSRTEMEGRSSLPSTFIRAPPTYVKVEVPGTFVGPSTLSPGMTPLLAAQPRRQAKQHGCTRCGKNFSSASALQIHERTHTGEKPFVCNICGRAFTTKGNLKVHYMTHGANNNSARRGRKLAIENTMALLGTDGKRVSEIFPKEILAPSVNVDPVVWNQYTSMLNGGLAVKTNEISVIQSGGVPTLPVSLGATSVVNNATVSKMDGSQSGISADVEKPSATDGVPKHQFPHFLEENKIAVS
Method: universal PBM
Molecule type: double-stranded DNA, one strand shown
Medium: in vitro
Concentration: 600 nM
Setting: 8-mer, flanks averaged, mean of replicates
Direction: higher = stronger binding
Strand | E-score
ACGGTTTG | -0.134
ACCCGTGC | -0.319
AGGTCTGC | -0.131
ATTGGGGC | -0.0737
GGTTCTAC | -0.0349
CGCCATGA | -0.197
CAACTCTC | -0.119
AGTTACCG | -0.00591
CGGCACCA | -0.249
CCCTCTTA | -0.0006
ATACGCCA | 0.0408
GGTAGCTA | -0.0244
ACCTGTTA | 0.0314
TAATTAGA | 0.291
CTCGCAAG | -0.0608
CACTTTGA | -0.102
AATATCGG | 0.2
AGATGTGC | -0.00279

Repeated from above (sample 4):
Strand | E-score
GGTTCTAC | -0.0349
GGTAGCTA | -0.0244
ACCTGTTA | 0.0314
AGTTACCG | -0.00591
AGATGTGC | -0.00279
